Experimental data of several laboratories.
Numbered parts are unrelated; each lists some results of a single study. Substitutions count along the parent as printed.

Study 1
Target: Histone acetyltransferase KAT6A, winged helix 1, GST fusion (KAT6A, Homo sapiens, UniProt Q92794, residues 1-85)
Technique: protein binding microarray
Molecule type: double-stranded DNA, one strand shown
Sample: in vitro
Tested at: not given
Setting: 8-mer, flanks averaged, mean of 2 arrays, mostly near background
Reference: not given
Direction: higher = stronger binding
Residues (chain): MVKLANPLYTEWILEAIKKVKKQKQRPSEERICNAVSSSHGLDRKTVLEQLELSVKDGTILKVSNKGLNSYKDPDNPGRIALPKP
Strand	E-score
GCCAAGTA	-0.153
AACGAGGT	-0.0433
CGGCGAAG	0.328
CTAGCCCC	-0.0496
TCAGTGGA	0.0416
CAGTGTCA	-0.0991
CCAATTAA	-0.0771
TACGTTAA	-0.0371
CCACGTAG	-0.172
AAAGGGGC	-0.113
GAGTCAAC	-0.162
GGGGTGAC	-0.03
ACGATGAT	-0.106
GTATTTAA	-0.135
ATGCGCTG	0.2
ATGGGCGG	0.157
ACTAATTG	-0.0549
AGTTGCAA	-0.0819
CAACGCTC	-0.0919
ACTTAAAC	-0.253
CTGTCCGA	0.0923
GCATTACA	0.0127
AGTTGGCG	0.0997
GTGCACTA	0.0816
AACACCCC	-0.128

Study 2
Target: RNA binding protein fox-1 homolog 2, RRM domain, GST-SBP tag (RBFOX2, Homo sapiens, UniProt O43251-10, residues 100-194)
Technique: RNA Bind-n-Seq
Molecule type: RNA
Sample: in vitro
Tested at: 365 nM
Setting: natural RNA segment, single round, ends assumed
Reference: no-protein control
Direction: higher = stronger binding
Constant ends, left off below: GGGAGUUCUACAGUCCGACGAUC … UGGAAUUCUCGGGUGCCAA
Residues (chain): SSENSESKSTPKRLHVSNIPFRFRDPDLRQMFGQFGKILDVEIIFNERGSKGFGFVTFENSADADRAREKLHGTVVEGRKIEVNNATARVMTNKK
Strand	RBNS enrichment (R)
GGCACUGGAAAGCCUCUGUCUUCCCAGCCCUUGCCUCUCCAGGAAACUCCACAGGCCUCCAGAGAAUACCAGUUUCUCAGCCCAAGGGGUCCAUCACUGAGAAGUGCCCA	0.222
AUCUGUGCAGGGUCGUGGGAGCCACACUGAGAGACUUGUGUGGGCCAGACAAGCUUCAUUCUGAUGCGCUAGUCCCUUGGUUUAAUUUGUGCCUUAUGCUUUCAUUGGAC	0.375
UCCUACUCCCCUUUCCCUCCAAAUGUUAAGGGUUUUCUCCCAGAACAGUAAUGGGGCUAAAGGGGCAGUGAGCUCCAAACAGUCACAGAGUGAGGAGUCUUCUGAGCUCC	0.177
UUAUAAAUCUUUCAAAUUAGUUCCUUUUUAGAAUUUACCAACAGGUUCAAAGCAUACUUUUCAUGAUUUUUUUAUUACAAAUGUAAAAUGUAUAAAGUCACAUGUACUGC	0.777
AGAUGGUUGAAUGCGCUUGUACUAUAUGCUAAAAUAUGGAAAAGGAAAAAAAAAUCUCACAAGUUCUUUUGGAACUUGUUUCAAGCCAAAAACUCUCAAGAAAGCAAAUU	0.299
UUGCUUUGCUUAGUUGGCAAAAGCAGGAAAAGAGGUGACAGAGAAUGUUGACUCCAAGGUCCCUAGGAAAUCUCACGAUACACUGGCCGCUGGUUGGUACACUGAUUUCC	0.199
UCUAAGUCGGCUGUUUGGGUUGAGGAGGAGAGAACCCGAGGAAAUGACCAUGCUCUGGGGACAGGGGUACCUUAGAUUCUCUGUCUAUUUUUCCUCUAGCAAGCCAGCUG	0.74
UCAUCUGCCAUUACUGUUAUUUGCUGAUUUUAUUUUAUUUUGAUGGUAAUAUUCUAUCCUUAUGACACUAUUGCAACCAAAUUGGCUUUACCAUCUUGGCUUUAGUAGGU	0.564

Study 3
Target: Prothrombin, mature alpha-thrombin (F2, Homo sapiens, UniProt P00734)
Technique: aptamer microarray, sandwich
Molecule type: DNA with 2'F-ANA
Sample: in vitro
Tested at: 200 nM
Setting: whole 15-mer aptamer, many near background
Added: Cy3 exosite-II aptamer, 400 nM
Direction: higher = stronger binding
Strand: GGTTGGTGTGGTTGG
Modification	mean fluorescence intensity
2'F-ANA at 2 3 7 10 15	461 a.u.
2'F-ANA at 1 2 7 14 15	70.3 a.u.
2'F-ANA at 3 6 7 8 10 11 12 13 14 15	399 a.u.
2'F-ANA at 1 2 3 5 8 10 12 13 15	47.9 a.u.
2'F-ANA at 5 8 9 10 14	43.5 a.u.
2'F-ANA at 7 11 12 13	751 a.u.
2'F-ANA at 5 6 8 10 11 13 14	95.7 a.u.
2'F-ANA at 1 2 4 7 10 12 13	111 a.u.
2'F-ANA at 2 3 7 8 9 10 11 14	268 a.u.
2'F-ANA at 1 2 7 8 10 13 15	50.8 a.u.
2'F-ANA at 2 3 4 5 6 7 9 14	69.9 a.u.
2'F-ANA at 1 3 4 5 6 7 10 11 12	51 a.u.
2'F-ANA at 1 2 5 6 8 9 11 12 15	91.3 a.u.
2'F-ANA at 1 2 3 5 12 13 14	47 a.u.
2'F-ANA at 3 9 10 12	632 a.u.
2'F-ANA at 2 3 4 6 7 10	269 a.u.
2'F-ANA at 1 2 3 4 5 6 7 11 12 13 14	53.7 a.u.
2'F-ANA at 2 6 7 11 13 15	271 a.u.
2'F-ANA at 1 3 11 15	284 a.u.
2'F-ANA at 1 4 7 10 11 12 14	46.3 a.u.
2'F-ANA at 1 3 4 5 6 7 8 9 11 12 13	73.2 a.u.

Study 4
Target: PABPC1L2, full length, GST fusion (mouse, UniProt A0ABA7IW68)
Technique: RNAcompete
Molecule type: RNA
Sample: in vitro
Tested at: 20 nM
Setting: 7-mer, probes averaged, single round
Reference: mean of 7-mers
Direction: higher = stronger binding
Residues (chain): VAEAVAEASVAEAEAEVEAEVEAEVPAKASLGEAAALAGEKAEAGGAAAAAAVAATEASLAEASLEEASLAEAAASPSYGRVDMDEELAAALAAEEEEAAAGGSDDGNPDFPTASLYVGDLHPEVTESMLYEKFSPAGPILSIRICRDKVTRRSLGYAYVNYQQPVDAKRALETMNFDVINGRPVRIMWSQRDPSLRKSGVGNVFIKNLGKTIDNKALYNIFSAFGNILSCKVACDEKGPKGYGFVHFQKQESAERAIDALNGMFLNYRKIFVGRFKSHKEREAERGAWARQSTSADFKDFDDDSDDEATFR
Strand	7-mer Z-score
CAUUCAA	-0.0573
UGAUUCC	-0.164
GUGCCGG	-0.106
UUGCAUC	-0.32
UCUAAUA	-0.188
AGACUAA	0.144
GGAUUAU	-0.0754
AAGUUAG	0.215
UUUUGCU	-0.335
CAUUUGC	-0.407
AGGUAUU	-0.182
CUCGGCC	-0.164
GUUAAGG	-0.151
CUUGACU	-0.374
UAGAGUG	-0.155
AUCCGCG	-0.287
UCGGGAA	0.0569
UUAAGCU	-0.291

Study 5
Target: CCNB1, cyclin fold, Cln2 fusion (human)
Technique: yeast growth competition, sequencing
Sample: yeast
Setting: weak parent motif
Reference: not given
Direction: higher = stronger binding
Starting sequence: GMNC docking peptide (human); KNAKRNLSSEFAN
Variant	normalised enrichment score
KNAKRNLPSEFAN [S8P]	-0.0321
KNAKRNESSEFAN [L7E]	0.0445
KNAKRNYSSEFAN [L7Y]	0.13
KNAKRPLSSEFAN [N6P]	0.18
KNAKRNLMSEFAN [S8M]	0.769
KNAKRNLSFEFAN [S9F]	0.101
KNAKRNLSSGFAN [E10G]	0.236
KNAKVNLSSEFAN [R5V]	-0.363
KHAKRNLSSEFAN [N2H]	0.181
KNAKRLLSSEFAN [N6L]	-0.302
KNAKANLSSEFAN [R5A]	0.188
KNAKRNLNSEFAN [S8N]	0.713
KRAKRNLSSEFAN [N2R]	0.633
KNANRNLSSEFAN [K4N]	0.0982
KNAKRNLSSYFAN [E10Y]	-0.463
KNAKRNLSSERAN [F11R]	0.00165
KNAKRNWSSEFAN [L7W]	0.298
KNLKRNLSSEFAN [A3L]	-0.117
